Assay results collected from several papers.
Each line is one published result; not all experiments were run side by side. “And” joins repeats or separate records; there may be more than shown. Numbers after ± are the reported error.
Mapk1: Mitogen-activated protein kinase 1 (Mapk1, Rattus norvegicus, UniProt P63086)

`CC[C@H](C)[C@H](NC(=O)[C@H](C)NC(=O)[C@H](CCC(=O)O)NC(=O)[C@H](CC(C)C)NC(=O)[C@H](CO)NC(=O)[C@H](CCCNC(=N)N)NC(=O)[C@H](CCCNC(=N)N)NC(=O)[C@H](CC(C)C)NC(=O)[C@H](CC(C)C)NC(=O)[C@@H](NC(=O)[C@H](C)NC(=O)[C@@H](N)Cc1ccc(O)cc1)[C@@H](C)CC)C(=O)N[C@@H](CCC(=O)O)C(=O)N[C@@H](CC(C)C)C(=O)NCC(=O)N[C@@H](CC(C)C)C(=O)O` has an IC50 of 75.7 µM (Mapk1; enzyme activity, inhibitor, fluorescence; pH 7.4).
The IC50 of `Cc1nnc(C(C)C)n1C1CC2CCC(C1)N2CCC(NC(=O)Cc1ccc(-c2nncnn2)cc1)c1ccccc1` (stereo not shown) is reported as 0.00621 µM and 0.004 µM and 0.00721 µM (CCR5 (Homo sapiens, UniProt P51681, Y184K); calcium mobilization, antagonist; HEK293T cells expressing CCR5; added: PSC-RANTES).
`CCCN(Cc1nnc(-c2ccco2)o1)C(=O)C1CCCN(C(=O)c2ccc(Cl)cc2)C1` (stereo not shown) gave an IC50 of 0.514 µM (PFF0160c (Plasmodium falciparum, UniProt Q08210); enzyme activity, inhibitor, absorbance).
`C[C@@H]1COCCN1c1nc(NCc2cccnc2C(F)(F)F)c2cccnc2n1` has an IC50 of > 33 µM (SCN5A (Homo sapiens, UniProt Q14524); ion current, inhibitor).
`CC(C)N1CCCCC1C(=O)NC(Cc1ccc(-c2ccccc2)cc1)B(O)O` (stereo not shown) gave an IC50 of > 10 µM (Proteasome subunit beta type-10 / Proteasome subunit beta type-3 (Homo sapiens, UniProt P40306+P49720); β2i activity, inhibitor; immunoproteasome, added: Ac-KQL-AMC).
The IC50 of `CC[C@H](C)[C@H](NC(=O)[C@H](CC(C)C)NC(=O)[C@H](CCCCN)NC(=O)[C@H](CCC(=O)O)NC(=O)[C@H](CCCCN)NC(=O)[C@H](CCCNC(=N)N)NC(=O)[C@@H]1CCCN1C(=O)[C@H](CCCNC(=N)N)NC(=O)[C@H](CCC(N)=O)NC(=O)[C@H](CCCCN)NC(=O)[C@@H]1CCCN1C(=O)[C@H](C)NC(=O)[C@@H](N)Cc1ccc(O)cc1)C(=O)N[C@H](C(=O)N1CCC[C@H]1C(=O)N[C@H](C(=O)O)[C@@H](C)O)[C@@H](C)CC` is reported as 163 µM (Mapk1; enzyme activity, inhibitor, fluorescence; pH 7.4).
`O=C(O)CCn1c(=O)oc2cc(Cl)c(Cl)cc21` has an IC50 of > 25.1 µM (HRH1 (Homo sapiens, UniProt P35367); antagonist; median value).
The IC50 of `CC(C)C[C@H](NC(=O)[C@H](CCC(N)=O)NC(=O)[C@H](CC(N)=O)NC(=O)[C@H](C)NC(=O)[C@@H](N)Cc1ccc(O)cc1)C(=O)N[C@@H](CCCCN)C(=O)N[C@@H](Cc1ccccc1)C(=O)N[C@@H](CCCNC(=N)N)C(=O)N[C@@H](CCCCN)C(=O)N[C@@H](CCCCN)C(=O)N[C@@H](CCCCN)C(=O)N[C@@H](CC(C)C)C(=O)N[C@@H](CCCCN)C(=O)N[C@@H](Cc1ccccc1)C(=O)N[C@@H](CS)C(=O)N[C@@H](CCCCN)C(=O)O` is reported as 24.7 µM (Mapk1; enzyme activity, inhibitor, fluorescence; pH 7.4).
The IC50 of `O=C(CF)N[C@H]1[C@H]([C@H](O)[C@H](O)CNC(=O)c2ccc(-c3ccccc3)cc2)O[C@@](OCc2cccc(Cl)c2Cl)(C(=O)O)C[C@@H]1O` is reported as 0.3 ± 0.04 µM (CD22 (Homo sapiens, UniProt P20273); ligand binding, inhibitor, competitive bead binding flow cytometry; added: 6'SLN(Gc)-PAA-biotin beads).
The IC50 of `COc1cc(CN2CCN(C(=O)Cc3ccccc3)CC2)cc(OC)c1O` is reported as 4 ± 1 µM (Alpha-synuclein (SNCA, Homo sapiens, UniProt P37840); seeded fibril growth, FlAsH fluorescence; 3 h, 37 °C, added: 3 µM C2-asyn monomer, 1 µM seeds).
